Experimental data pooled from the literature.
Compare with care: the assays were run in different laboratories.
Cell line: MCF7

| SMILES | assay | conditions | IC50 |
| --- | --- | --- | --- |
| CC[C@H](C)[C@H](NC(=O)[C@H](CCCCN)NC(=O)[C@H](CCCCN)NC(=O)[C@H](C)NC(=O)[C@H](CC(C)C)NC(=O)[C@H](C)NC(=O)[C@H](C)NC(=O)[C@H](CC(C)C)NC(=O)[C@H](C)NC(=O)[C@H](CCCCN)NC(=O)[C@H](CC(C)C)NC(=O)[C@H](CC(N)=O)NC(=O)[C@@H](NC(=O)[C@H](CCCCN)NC(=O)CNC(=O)[C@H](CC(C)C)NC(=O)[C@H](CC(C)C)NC(=O)[C@H](Cc1ccc(O)cc1)NC(=O)CNC(=O)[C@H](C)NC(=O)[C@H](CO)NC(=O)[C@H](CC(N)=O)NC(=O)[C@H](CC(C)C)NC(=O)[C@@H](NC(=O)[C@H](Cc1c[nH]c2ccccc12)NC(=O)CN)[C@@H](C)O)[C@@H](C)CC)C(=O)N[C@@H](CC(C)C)C(N)=O | cytotoxicity | – | 1.4 µM |
| [N-]=[N+]=NCCN1C(=O)c2cccc3cccc(c23)C1=O | cell growth or viability, MTT | 24 h | > 100 µM |
| C=CC[P](c1ccccc1)(c1ccccc1)[Pt]([S]c1nc2ccccc2s1)([S]c1nc2ccccc2s1)[P](CC=C)(c1ccccc1)c1ccccc1 | cell growth or viability, MTT | – | 34.6 µM |
| Cc1nn(-c2ccccc2)c(O)c1C(c1cccc([N+](=O)[O-])c1)c1c(C)nn(-c2ccccc2)c1O | cell growth or viability, MTT | 48 h | 32.5 µM |
| Cc1cc(C)c(-n2ccn(-c3c(C)cc(C)cc3C)c2=[Se])c(C)c1.[Cl][Au] | cell growth or viability, MTT | 72 h | 0.6 µM |
| CO[C@@H]1[C@@H](O)[C@H](O[C@H]2CC[C@@]3(C)[C@H](CC[C@@H]4[C@@H]3CC[C@]3(C)[C@@H](C5=CC(=O)OC5)[C@@H](O)C[C@]43O)C2)O[C@H](C)[C@@H]1O[C@@H]1O[C@H](CO)[C@@H](O)[C@H](O)[C@H]1O | cell growth or viability, MTT | 48 h | 1.38 µM |
| C1N2CN3CN1CP(C2)C3.CC(C)OC(=O)C(n1cccn1)n1cccn1.F[P-](F)(F)(F)(F)F.[Cu+] | cell growth or viability, MTT | 72 h | 20.7 µM |
| COc1ccc(C(c2c(C)nn(-c3ccccc3)c2O)c2c(C)nn(-c3ccccc3)c2O)cc1OC | cell growth or viability, MTT | 48 h | 8.05 µM |
| C[C@H]1O[C@@H](O[C@H]2CC[C@@]3(C)[C@H](CC[C@@H]4[C@@H]3CC[C@]3(C)[C@@H](C5=CC(=O)OC5)[C@@H](O)C[C@]43O)C2)C[C@H](O)[C@@H]1O | cell growth or viability, MTT | 48 h | 0.49 µM |
| C=C(CO)[C@H]1Cc2c(ccc3c2O[C@@H]2COc4cc(OC)c(OC)cc4[C@]2(O)C3=O)O1 | cell growth or viability, MTT | 72 h | 33.1 µM |
| O=C(O)[c-]1cccc1.O=C(Oc1ccc(-n2cccc2)cc1)[c-]1cccc1.[Fe+2] | cell growth or viability, MTT | – | 57 µM |
| C=CC[P](c1ccccc1)(c1ccccc1)[Pt]([Cl])([Cl])[P](CC=C)(c1ccccc1)c1ccccc1 | cell growth or viability, MTT | – | 19 µM |
| CC(C)C[C@H](NC(=O)[C@H](C)NC(=O)[C@H](CCCCN)NC(=O)[C@H](C)NC(=O)[C@H](C)NC(=O)[C@@H]1CSCc2ccc(cc2)CSC[C@H](NC(=O)[C@H](CCCCN)NC(=O)[C@H](Cc2ccccc2)NC(=O)CN)C(=O)N[C@@H](CC(C)C)C(=O)N[C@@H](CC(C)C)C(=O)N[C@@H](CCCCN)C(=O)N1)C(=O)N[C@H](C(=O)N[C@@H](CCCCN)C(=O)N[C@H](C(=O)N[C@H](C(=O)N[C@@H](CC(C)C)C(=O)N[C@@H](Cc1ccccc1)C(N)=O)C(C)C)[C@@H](C)O)C(C)C | cell growth or viability, CCK-8 | – | 10.3 µM |
| Cc1nn(-c2ccccc2)c(O)c1C(c1ccccc1[N+](=O)[O-])c1c(C)nn(-c2ccccc2)c1O | cell growth or viability, MTT | 48 h | 35.8 µM |
| [Cl][Ag].[Se]=c1n(C2CCCCC2)ccn1C1CCCCC1 | cell growth or viability, MTT | 72 h | 1.3 µM |
| CC(C)[C@H](NC(=O)[C@H](C(C)C)N(C)C)C(=O)N(C)[C@H](C(=O)N1CCC[C@H]1C(=O)N1CCC[C@H]1C(=O)NCc1ccccc1)C(C)C | cell growth or viability | 48 h | 0.00044 µM |
| CC[C@H](C)[C@@H]([C@@H](CC(=O)N1CCC[C@H]1[C@H](OC)[C@@H](C)C(=O)N[C@H](C)[C@@H](O)c1ccccc1)OC)N(C)C(=O)[C@@H](NC(=O)[C@H](C(C)C)N(C)C(=O)OCc1ccc(NC(=O)[C@H](CCCNC(N)=O)NC(=O)[C@@H](NC(=O)CCCc2cn(CC(=O)N[C@@H](CCCCNC(=O)CC[C@H](NC(=O)c3ccc(NCc4cnc5nc(N)[nH]c(=O)c5n4)cc3)C(=O)O)C(=O)NCCCC[C@H]3NC(=O)[C@H](CCCCN)NC(=O)[C@H](CCCNC(N)=O)NC(=O)[C@H](Cc4ccc(O)cc4)NC(=O)[C@@H](NC(=O)[C@H](Cc4ccc5ccccc5c4)NC(=O)[C@H](CCCNC(=N)N)NC(=O)[C@@H](N)CCCNC(=N)N)CSSC[C@@H](C(=O)N[C@@H](CCCNC(=N)N)C(N)=O)NC(=O)[C@H](CCCNC(N)=O)NC(=O)[C@H](CCCNC(=N)N)NC(=O)[C@H](Cc4ccc(O)cc4)NC(=O)[C@@H]4CCCN4C3=O)nn2)C(C)C)cc1)C(C)C | cell growth or viability, CCK-8 | 48 h | 2.01 µM |
| C[C@H]1O[C@@H](O[C@H]2[C@@H](O)C[C@H](O[C@H]3[C@@H](O)C[C@H](O[C@H]4CC[C@@]5(C)[C@H](CC[C@@H]6[C@@H]5C[C@@H](O)[C@]5(C)[C@@H](C7=CC(=O)OC7)[C@@H](O)C[C@]65O)C4)O[C@@H]3C)O[C@@H]2C)C[C@H](O)[C@@H]1O | cell growth or viability, MTT | 48 h | 0.67 µM |
| COC(=O)C1CN1S(=O)(=O)c1c(C)cc(C)cc1C (centres unmarked) | cell growth or viability, MTT | 48 h | 49 µM |
| O=C(Nc1nc2c(ncn2C2OC(COP(=O)(O)O)C(O)C2O)c(=O)[nH]1)c1ccccc1 (centres unmarked) | cell growth or viability | – | 7.68 µM |
| CC[C@H](C)[C@H](NC(=O)[C@@H](N)Cc1ccc(O)cc1)C(=O)N[C@@H](Cc1ccccc1)C(=O)N[C@@H](CC(N)=O)C(=O)N[C@@H](CC(C)C)C(=O)O | cell proliferation, tetrazolium | – | 0.00015 µM |
| O=C1CC2(C1)C(=O)[O][Pt]1([Cl])([O]C(=O)C(Cl)Cl)([NH][C@@H]3CCCC[C@H]3[NH]1)[O]C2=O | cell growth or viability, MTT | – | 7.96 µM |
| C/C=C/C=C/C/C=C/CCCCCCCc1cccc(O)c1O | cell growth or viability, MTT | 48 h | 3.42 µg/mL |
| COC(=O)C1CN1S(=O)(=O)c1ccccc1 (centres unmarked) | cell growth or viability, MTT | 48 h | 40 µM |
| C[C@@H](N)[C@H](O)CCCCCCCC(=O)CCCCCCCCCCCCCC[C@@H](O[C@@H]1O[C@H](CO)[C@H](O)[C@H](O)[C@H]1O)[C@H](N)CO | cell growth or viability, resazurin | 96 h | 6.16 µM |
| CC(C)C[C@H](NC(=O)[C@H](C)NC(=O)[C@H](CCCCN)NC(=O)[C@H](C)NC(=O)[C@H](C)NC(=O)CNC(=O)[C@H](CCCCN)NC(=O)[C@H](CC(C)C)NC(=O)[C@H](CC(C)C)NC(=O)[C@H](CC(=O)O)NC(=O)[C@H](CCCCN)NC(=O)[C@H](Cc1ccccc1)NC(=O)CN)C(=O)N[C@H](C(=O)N[C@@H](CCCCN)C(=O)N[C@H](C(=O)N[C@H](C(=O)N[C@@H](CC(C)C)C(=O)N[C@@H](Cc1ccccc1)C(N)=O)C(C)C)[C@@H](C)O)C(C)C | cell growth or viability, CCK-8 | – | 9.33 µM |
| C=CC12COC(=O)C(=C)C1C(O)C1C(=C)C(=O)OC1C2 (centres unmarked) | cell growth or viability, MTT | 72 h | 35 µM |
| Cc1nn(-c2ccccc2)c(O)c1C(c1ccc(F)cc1)c1c(C)nn(-c2ccccc2)c1O | cell growth or viability, MTT | 48 h | 28.5 µM |
| CC(=O)c1nn(-c2ccc(Cl)cc2)c2nc3nc(-c4ccccc4)cc(-c4ccc5ccccc5n4)c3c(=O)n12 | cell growth or viability, MTT | 48 h | 10.2 µM |

Some of these lines once more:
| SMILES | assay | conditions | IC50 |
| --- | --- | --- | --- |
| CC(C)C[C@H](NC(=O)[C@H](C)NC(=O)[C@H](CCCCN)NC(=O)[C@H](C)NC(=O)[C@H](C)NC(=O)[C@@H]1CSCc2ccc(cc2)CSC[C@H](NC(=O)[C@H](CCCCN)NC(=O)[C@H](Cc2ccccc2)NC(=O)CN)C(=O)N[C@@H](CC(C)C)C(=O)N[C@@H](CC(C)C)C(=O)N[C@@H](CCCCN)C(=O)N1)C(=O)N[C@H](C(=O)N[C@@H](CCCCN)C(=O)N[C@H](C(=O)N[C@H](C(=O)N[C@@H](CC(C)C)C(=O)N[C@@H](Cc1ccccc1)C(N)=O)C(C)C)[C@@H](C)O)C(C)C | cell growth or viability, CCK-8 | – | 10.3 µM |
| C/C=C/C=C/C/C=C/CCCCCCCc1cccc(O)c1O | cell growth or viability, MTT | 48 h | 3.42 µg/mL |
| [Cl][Ag].[Se]=c1n(C2CCCCC2)ccn1C1CCCCC1 | cell growth or viability, MTT | 72 h | 1.3 µM |
| COc1ccc(C(c2c(C)nn(-c3ccccc3)c2O)c2c(C)nn(-c3ccccc3)c2O)cc1OC | cell growth or viability, MTT | 48 h | 8.05 µM |
